Experimental data gathered from unrelated publications.
Protocols differ between the studies behind these lines. ± gives the spread as reported.
KLRK1 with ULBP6: NKG2-D type II integral membrane protein, with ULBP6 (KLRK1, Homo sapiens, UniProt P26718)

SMILES	target	test	test system	conditions	scale	quantity	result
COc1ccc(-c2coc3cc(OCCN4CCCC[C@@H]4C)ccc3c2=O)cc1	Ache (Rattus norvegicus, UniProt P37136)	inhibitor, Ellman method	rat	–	–	binding free energy	-6.4 kcal/mol
O=[N+]([O-])c1ccc(OP(=O)(O)O)cc1	Alkaline phosphatase PafA (pafA, Elizabethkingia meningoseptica, UniProt Q9KJX5, T79S)	substrate	–	pH 8.0	–	kcat	1.8 s^–1
O[C@@H]1[C@@H](O)[C@H](O[C@@H]2OC[C@@H](O)[C@H](O)[C@H]2O)C[C@H]2N[C@@H]12	endo-1,4-beta-xylanase (Aspergillus aculeatus, UniProt A0A1L9WG58)	covalent inhibitor	–	pH 5.0, together with: 4MU-β-D-xylobioside	–	kinact	0.00767 s⁻¹
COC(=O)C1C(OC(c2ccc(Cl)cc2)c2ccc(Cl)cc2)CC2CCC1N2C (single isomer, unassigned)	Adra1a (Rattus norvegicus, UniProt P43140)	binding, radioligand displacement	rat submaxillary gland	inactive if below 75% at 10000 nM, together with: [3H]prazosin	–	Ki	inactive
O=C1CCC(N2Cc3c(ccc4c3OCC43CCN(Cc4ccccc4)CC3O)C2=O)C(=O)N1 (stereo not shown)	CRBN/Zinc finger protein Helios (Homo sapiens, UniProt Q96SW2+Q9UKS7)	Helios degradation, degrader, HiBiT	HEK293	6 h	–	Dmax	39%
N[C@@H](Cc1ccc(C(=O)NCCc2cccc3ccccc23)cc1)C(=O)N1Cc2ccccc2C[C@H]1C(=O)N[C@@H](Cc1ccccc1)C(=O)N[C@@H](Cc1ccccc1)C(=O)O	Oprd1 (Mus musculus, UniProt P32300)	smooth muscle contraction, agonist	mouse vas deferens	–	reference: DPDPE	relative potency	2 to 4 fold
CN1/C(=C/C=C/C=C/C2=[N+](CCCCCC(=O)NCCCCCCCCN3[C@@H]4[C@H](C(=O)O)[C@@H](O)[C@H](O)[C@@H](O)[C@@H]43)c3ccccc3C2(C)C)C(C)(C)c2ccccc21 (stereo partly shown)	Beta-glucuronidase (GUSB, Homo sapiens, UniProt P08236)	inhibitor, competitive ABPP	human platelet lysate	–	lowest fully inhibiting	concentration for complete inhibition	390 nM
N#CCNC(=O)c1cnccc1C(F)(F)F	Nicotinamidase (Drosophila melanogaster, UniProt Q9VDU7)	GDH-coupled	–	100 µM	–	enzyme activity	no effect
CSCC[C@H](NC(=O)[C@H](CCCNC(=N)N)NC(=O)[C@H](CO)NC(=O)[C@@H](NC(=O)[C@H](CC(=O)O)NC(=O)[C@H](CC(=O)O)NC(=O)CCCCCNC(=O)c1ccc2c(c1)C(=O)OC21c2ccc(O)cc2Oc2cc(O)ccc21)[C@@H](C)O)C(=O)N[C@@H](CCC(=O)O)C(=O)N[C@@H](CCCCN)C(=O)N[C@H](C(=O)N[C@@H](CC(=O)O)C(=O)O)C(C)C	FKBP5 (Homo sapiens, UniProt Q13451)	binding, fluorescence polarization	–	pH 7.4, full-length protein	reference: wild-type Hsp90α tracer	affinity decrease	≥ 3 fold
NC(CNC(CNC(CC(=O)O)C(=O)O)C(=O)O)C(=O)O (stereo not shown)	blaNDM-1 (Klebsiella pneumoniae, UniProt C7C422)	enzyme activity, inactivator	–	37 °C, enzyme 50 nM, together with: nitrocefin 20 µM	–	inactivation rate constant	0.0062 s⁻¹
O=C(O)c1ccccc1-c1c2ccc(=O)c([As]3SCCS3)c-2oc2c([As]3SCCS3)c(O)ccc12	Ptpn11 (Mus musculus, UniProt P35235)	–	–	1 µM, catalytic domain, together with: pNPP	–	time to maximal inhibition	~30 min
C[C@H](NC(=O)[C@H](Cc1ccccc1)NC(=O)c1ccc(Br)cc1)C(=O)N[C@H](C(=O)N[C@@H](CCCC[N+](C)(C)C)C(=O)N[C@@H](CO)C(N)=O)C1CCCC1	Chromobox protein homolog 2 (Homo sapiens, UniProt Q14781)	competitive fluorescence polarization	–	–	reference: Cbx7 over Chromobox protein homolog 2	selectivity ratio	2.1 fold
Cc1cc(C2=CCN(CC3OCCO3)CC2)cc([N+](=O)[O-])c1N	HTR2B (Homo sapiens, UniProt P41595)	calcium mobilisation, agonist	–	–	reference: 5-HT	Emax	12.1 ± 2.36%
CC[C@H](C)[C@H](NC(=O)[C@H](Cc1c[nH]cn1)NC(=O)[C@H](CCCCNC(=O)[C@@H](NC(=O)[C@H](CCCCN)NC(=O)[C@H](Cc1ccccc1)NC(=O)[C@H](CCCCNC(=O)[C@H](CC(C)C)NC(=O)[C@@H]1CCCN1C(=O)[C@H](CCCCN)NC(=O)CCS[C@@H]1O[C@H](CO)[C@H](O)[C@H](O)[C@H]1O)NC(=O)[C@H](CC(C)C)NC(=O)[C@@H]1CCCN1C(=O)[C@H](CCCCN)NC(=O)CCS[C@@H]1O[C@H](CO)[C@H](O)[C@H](O)[C@H]1O)[C@@H](C)CC)NC(=O)[C@@H](NC(=O)[C@H](CCCCN)NC(=O)[C@H](Cc1ccccc1)NC(=O)[C@H](CCCCNC(=O)[C@H](CC(C)C)NC(=O)[C@@H]1CCCN1C(=O)[C@H](CCCCN)NC(=O)CCS[C@@H]1O[C@H](CO)[C@H](O)[C@H](O)[C@H]1O)NC(=O)[C@H](CC(C)C)NC(=O)[C@@H]1CCCN1C(=O)[C@H](CCCCN)NC(=O)CCS[C@@H]1O[C@H](CO)[C@H](O)[C@H](O)[C@H]1O)[C@@H](C)CC)C(N)=O	lecA (Pseudomonas aeruginosa, UniProt Q05097)	ITC	–	concentration not given, pH 7.5, 25 °C	–	binding enthalpy (ΔH)	-9.1 ± 0.2 kcal/mol
COP(=O)(O)Oc1ccc([N+](=O)[O-])cc1	Alkaline phosphatase PafA (pafA, Elizabethkingia meningoseptica, UniProt Q9KJX5, K162A)	–	Chryseobacterium meningosepticum	pH 8.0	reference: wild type over mutant kcat/KM	relative catalytic efficiency	1.3
c1ccc(CCCC2CCC(CCCc3ccccc3)N2)cc1 (stereo not shown)	Slc18a2 (Rattus norvegicus, UniProt Q01827)	dopamine uptake	rat striatal synaptic vesicles	together with: [3H]dopamine	–	maximal inhibition	100%
CCN(Cc1ccccc1)C(=O)CCc1nc(CN2CCN(C(=O)Cc3ccc(OC)c(OC)c3)CC2)no1	Voltage-gated potassium channel, KQT; KCNQ2(Kv7.2)/KCNQ3(Kv7.3) (KCNQ3/KCNQ2, Homo sapiens, UniProt O43525+O43526)	whole-cell patch clamp	CHO stable	300 nM	–	V1/2 of activation	-30.3 ± 2.81 mV
CN(C)C(=O)[C@@H](NC(=O)c1cnccc1-c1ccc(C(F)(F)F)cc1)c1cccc(C(F)(F)F)c1	KLRK1 with ULBP6	ligand binding, inhibitor, TR-FRET	HEK293 expressing NKG2D and DAP10	together with: ULBP6-AF647	reference: positive control	maximum inhibition	102%
C[C@@]1(O)CC[C@H]2[C@H](CC[C@@H]3[C@@H]2CC[C@]2(C)[C@@H](C(=O)Cn4cccn4)CC[C@@H]32)C1	Membrane progestin receptor delta (Paqr6, Mus musculus, UniProt Q6TCG5)	pPKA/PKA immunoblot	MDA-MB-231 expressing Paqr6-GFP	10 nM, 20 min	reference: control	PKA activation	99 ± 6.61%
CC(=O)NC(Cc1ccc(Br)c(Cl)c1)C(=O)N[C@@H](C)C(=O)N1CCC[C@H]1C(=O)N1CCC[C@H]1C(=O)N[C@@H](CCC(=O)O)C(=O)N[C@@H](Cc1c[nH]cn1)C(=O)N[C@@H](CO)C(=O)N[C@H](C(=O)N[C@@H](C)C(N)=O)[C@@H](C)OP(=O)(O)O (stereo partly shown)	NEK1 (Homo sapiens, UniProt Q96PY6)	enzyme activity, inhibitor	–	10 µM	–	inhibition	4.42%
CCCCCCc1cn(CC(=O)N[C@H]2CCOC2=O)nn1	lasR (Pseudomonas aeruginosa, UniProt P25084)	reporter gene, agonist	Escherichia coli, DH5α pJN105L/pSC11	100 µM	reference: OdDHL at same concentration	activation	39%
CN(C)C(=O)C(NC(=O)c1ccccc1-c1ccc(C(F)(F)F)cc1)c1cccc(C(F)(F)F)c1 (stereo not shown)	KLRK1 with ULBP6	–	–	–	–	Emax	86%

A few entries again:
SMILES	target	test	test system	conditions	scale	quantity	result
Cc1cc(C2=CCN(CC3OCCO3)CC2)cc([N+](=O)[O-])c1N	HTR2B (Homo sapiens, UniProt P41595)	calcium mobilisation, agonist	–	–	reference: 5-HT	Emax	12.1 ± 2.36%
